Measurements collected from several papers.
Each numbered part is a random draw from the data of one study; scales do not carry over between parts. Positions count from the first letter of the parent shown.

Study 1
Target: NFE2L3, bZIP domain (human)
Method: DHFR protein complementation
Sample: yeast
Setting: single substitutions, most at no-binding floor
Baseline: wild-type JUN-FOS pair
Reading: higher = stronger binding
Starting sequence: JUN, bZIP domain (human); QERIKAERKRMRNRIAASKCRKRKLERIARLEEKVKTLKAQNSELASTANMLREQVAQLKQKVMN; partner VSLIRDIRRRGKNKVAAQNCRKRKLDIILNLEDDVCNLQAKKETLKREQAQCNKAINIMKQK
| Change | binding fitness |
| --- | --- |
| L31Y | -1.47 natural log |
| E32I | -1.5 natural log |
| E44W | -1.57 natural log |
| R53Q | -1.5 natural log |
| L52E | -1.5 natural log |
| M51C | -1.39 natural log |
| A49E | -1.52 natural log |
| A57L | -1.51 natural log |
| I28G | -1.48 natural log |
| M51H | -1.54 natural log |
| E44T | -1.47 natural log |
| K34M | -1.5 natural log |
| R53V | -1.36 natural log |
| R53K | -1.15 natural log |
| A29Y | -1.55 natural log |
| S47V | -1.33 natural log |
| L52Q | -1.49 natural log |

Study 2
Target: Prothrombin, mature alpha-thrombin (F2, Homo sapiens, UniProt P00734)
Method: aptamer microarray, sandwich
Molecule type: DNA with 2'F-ANA
Sample: in vitro
Tested at: 200 nM
Setting: whole 15-mer aptamer, many near background
Added: Cy3 exosite-II aptamer, 400 nM
Reading: higher = stronger binding
Sequence: GGTTGGTGTGGTTGG
| Modification | mean fluorescence intensity |
| --- | --- |
| 2'F-ANA at 1 2 4 6 7 10 13 14 15 | 48.1 a.u. |
| 2'F-ANA at 2 4 5 6 7 10 11 12 13 15 | 47.8 a.u. |
| 2'F-ANA at 1 7 8 9 14 | 64.3 a.u. |
| 2'F-ANA at 4 6 7 8 9 10 11 14 | 66.1 a.u. |
| 2'F-ANA at 2 4 5 6 10 11 13 14 15 | 80.7 a.u. |
| 2'F-ANA at 1 3 5 6 7 15 | 64.8 a.u. |
| 2'F-ANA at 3 5 7 9 11 | 104 a.u. |
| 2'F-ANA at 1 2 3 4 6 7 9 14 | 55.5 a.u. |
| 2'F-ANA at 1 2 3 4 6 7 8 10 | 64 a.u. |
| 2'F-ANA at 1 4 6 8 11 12 15 | 205 a.u. |
| 2'F-ANA at 1 2 3 4 5 6 9 10 11 12 13 | 50 a.u. |
| 2'F-ANA at 2 3 5 6 7 10 11 13 15 | 54.2 a.u. |
| 2'F-ANA at 3 4 6 7 8 12 13 | 1520 a.u. |
| 2'F-ANA at 1 2 3 6 7 8 10 11 12 13 14 15 | 69.4 a.u. |
| 2'F-ANA at 1 2 3 4 7 9 11 12 13 14 15 | 60.1 a.u. |
| 2'F-ANA at 2 7 8 10 12 13 15 | 203 a.u. |
| 2'F-ANA at 1 5 10 11 15 | 49.4 a.u. |
| 2'F-ANA at 1 5 7 8 10 11 12 | 51.9 a.u. |

Study 3
Target: OGT, full length, His-tagged (human)
Method: phage display, sequencing
Sample: in vitro
Tested at: 1 µg OGT
Setting: single substitutions, 15-mer displayed peptide, unchanged parent 19.6
Baseline: input library
Reading: higher = stronger binding
Starting sequence: peptide; TAPFYPPAYQIQVFK
| Change | fold enrichment [fold] |
| --- | --- |
| TAPFYPPAYQIQVFT [K15T] | 10.2 |
| TAPMYPPAYQIQVFK [F4M] | 19.8 |
| TAPFYPPAYQIQIFK [V13I] | 25.3 |
| TAPFYPPAYQIQVYK [F14Y] | 16.1 |
| TAPFYPIAYQIQVFK [P7I] | 1.42 |
| TAPFYPPAYQIQWFK [V13W] | 26.4 |
| TAPFYPPAYTIQVFK [Q10T] | 2.11 |
| TAPFWPPAYQIQVFK [Y5W] | 3.19 |
| TAPFYPPAYQIQVFS [K15S] | 10.4 |
| TAPYYPPAYQIQVFK [F4Y] | 19 |
| TAPFYPFAYQIQVFK [P7F] | 1.9 |
| TAPFYPPAYQIQVEK [F14E] | 14.6 |
| TAPFYPPAYQIQVFH [K15H] | 8.84 |
| TAPFYPPARQIQVFK [Y9R] | 0.785 |
| TAPFYPPFYQIQVFK [A8F] | 13.9 |
| TAPAYPPAYQIQVFK [F4A] | 7.32 |
| TAPFYPNAYQIQVFK [P7N] | 1.16 |
| TAPFYPPAYQIQVAK [F14A] | 6.04 |
| TAPFYPPAFQIQVFK [Y9F] | 3.46 |
| TAYFYPPAYQIQVFK [P3Y] | 14.4 |
| TAPFYAPAYQIQVFK [P6A] | 2.2 |
| TAPFYPPPYQIQVFK [A8P] | 0.67 |
| TAPFYPPAYQIQVRK [F14R] | 15.8 |
| TAPFYPSAYQIQVFK [P7S] | 1.06 |
| TAPFYPPEYQIQVFK [A8E] | 5.2 |

Study 4
Target: Histone acetyltransferase KAT6A, both winged helices, GST fusion (KAT6A, Homo sapiens, UniProt Q92794, residues 1-181)
Method: protein binding microarray
Molecule type: double-stranded DNA, one strand shown
Sample: in vitro
Tested at: not given
Setting: 8-mer, flanks averaged, mean of 2 arrays, mostly near background
Baseline: not given
Reading: higher = stronger binding
Construct (chain): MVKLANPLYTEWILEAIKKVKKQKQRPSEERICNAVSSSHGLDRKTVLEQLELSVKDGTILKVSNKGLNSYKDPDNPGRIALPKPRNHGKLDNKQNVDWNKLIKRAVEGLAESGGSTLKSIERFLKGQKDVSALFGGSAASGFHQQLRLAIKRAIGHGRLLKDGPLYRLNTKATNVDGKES
| Sequence | E-score |
| --- | --- |
| CTAGACAC | 0.0016 |
| CGGGGTGC | 0.184 |
| ACACGGTG | 0.141 |
| CATAAAAG | -0.0907 |
| AGAGTTCG | 0.0533 |
| ACTCGCAG | -0.0299 |
| ATCCAGAT | -0.102 |
| AAGAGTTC | -0.174 |
| CAAATGTC | -0.0584 |
| AGAACCCT | -0.0834 |
| CCGACTTA | -0.0831 |
| AGTTGGCA | -0.188 |
| CTGAACGC | 0.145 |
| ATCCCCTC | -0.183 |
| CTTTGTCA | -0.0722 |
| CGCAAGGA | 0.0149 |
| AAATATCG | -0.0145 |
| ACGCCTTG | 0.0715 |
| GTGCACTA | 0.0651 |

Study 5
Target: Interferon regulatory factor 7, full length, phosphomimetic (IRF7, Homo sapiens, UniProt Q92985, residues 1-503, S471D/S472D/S475D/S476D/S477D/S483D/S484D/S487D)
UniProt Q92985, sequence (whole entry, unmodified, looked up): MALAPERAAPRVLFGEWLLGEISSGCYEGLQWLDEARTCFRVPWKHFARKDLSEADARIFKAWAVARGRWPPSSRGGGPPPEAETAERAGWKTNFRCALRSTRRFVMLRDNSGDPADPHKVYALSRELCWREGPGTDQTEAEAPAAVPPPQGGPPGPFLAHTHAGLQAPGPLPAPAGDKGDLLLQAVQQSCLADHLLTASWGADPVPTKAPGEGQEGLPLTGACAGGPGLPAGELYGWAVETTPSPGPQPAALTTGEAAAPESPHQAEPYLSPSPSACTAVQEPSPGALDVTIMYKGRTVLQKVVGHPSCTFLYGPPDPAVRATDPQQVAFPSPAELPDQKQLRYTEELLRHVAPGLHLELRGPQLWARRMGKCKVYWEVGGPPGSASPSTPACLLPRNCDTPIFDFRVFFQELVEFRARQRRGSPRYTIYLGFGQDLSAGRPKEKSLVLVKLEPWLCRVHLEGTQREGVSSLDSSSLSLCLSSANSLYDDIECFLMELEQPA
Method: protein-binding microarray
Molecule type: double-stranded DNA, one strand shown
Sample: in vitro
Tested at: 2200 nM top
Setting: 60-bp whole probe
Added: salmon DNA 0.4 mg/ml
Baseline: random background probes
Reading: higher = stronger binding
All sequences stand within: GCCTAGCAC … GTCTTGATTCGCTTGACGCTGCTG
| Sequence | fitted relative affinity |
| --- | --- |
| TTAAGTTTCCTACTGCTTTAGTGCTAG | 1.67 z-score |
| CCGTGTTTCTCAACCATTTTGTGCTAG | 2.69 z-score |
| AACGGACTGGGGTATCGGGACGTGCTA | -0.637 z-score |
| GACGATTTCGGGGTTCGAGACGTGCTA | 1.72 z-score |
| TCATTTAGTAGTTTCTAACTGTGCTAG | 1.51 z-score |
| TTAGGTCTCCTGCTCCTTTAGTGCTAG | 0.69 z-score |
| TCATTTCTAATATTCTGACTGTGCTAG | 1.4 z-score |
| GTCCACTCCAGACCGTTTGCGTGCTAG | 1.06 z-score |
| GACGGACTGATTATCCTGACGTGCTAG | 0.483 z-score |
| CCGCATATCGGGGTGCGCCCGGTGCTA | 0.34 z-score |
| TTAGGTCTCGGTCTCGGTCAGTGCTAG | 0.323 z-score |
| TTAGATTTCAAACTGGATTAGTGCTAG | -0.459 z-score |
| TTAGATTCCAGTTGCGATTAGTGCTAG | 2.12 z-score |
| TTAGGTATCGGCCTGGGTTAGTGCTAG | -0.131 z-score |
| TTAGATCTCAGTCTTGATTAGTGCTAG | 0.0193 z-score |
| ATAGGTATCCTTTTCCTTTAGTGCTAG | 1.83 z-score |
| TTAGGTTTCGGTATCGGTTTGTGCTAG | 8.83 z-score |

Study 6
Target: Sal-like protein 4, full length isoform B (SALL4, Homo sapiens, UniProt Q9UJQ4-2, residues 1-616)
Method: universal PBM
Molecule type: double-stranded DNA, one strand shown
Sample: in vitro
Tested at: not given
Setting: 8-mer, flanks averaged, mean of replicates
Reading: higher = stronger binding
| Sequence | E-score |
| --- | --- |
| ACGGCGGC | -0.347 |
| CTATCAGC | 0.0785 |
| CCTGACGC | -0.291 |
| CTCAGAAA | 0.0584 |
| CCAGTGCA | -0.199 |
| CAAACAAC | 0.113 |
| AACTATGC | 0.177 |
| GTCCAAGA | -0.21 |
| CTCCAGAA | -0.137 |
| AGTCTCAG | -0.156 |
| CTAAATGC | 0.0341 |
| GCGGAGAC | -0.192 |
| CTTCGTCC | -0.199 |
| CGAACCAC | -0.277 |
| CAAGAGAA | 0.0233 |
| GGCGGCCA | -0.262 |
| AGTAGCGC | -0.0663 |
| GCGAGCTA | -0.145 |
| ATAGCCCG | -0.168 |
| AGTCACCA | -0.136 |
| ACTTCGAT | 0.0476 |
| ATCGACAG | -0.0767 |
| AAGAATGC | 0.113 |
| GTCTTGGA | -0.14 |
| TCAGAAAA | 0.179 |

Excerpt of the above (study 2):
| Modification | mean fluorescence intensity |
| --- | --- |
| 2'F-ANA at 2 3 5 6 7 10 11 13 15 | 54.2 a.u. |
| 2'F-ANA at 3 4 6 7 8 12 13 | 1520 a.u. |
| 2'F-ANA at 1 2 3 6 7 8 10 11 12 13 14 15 | 69.4 a.u. |
| 2'F-ANA at 1 2 3 4 7 9 11 12 13 14 15 | 60.1 a.u. |
| 2'F-ANA at 2 7 8 10 12 13 15 | 203 a.u. |
| 2'F-ANA at 1 5 10 11 15 | 49.4 a.u. |
| 2'F-ANA at 1 5 7 8 10 11 12 | 51.9 a.u. |
